Published values pooled from the literature.
Parts stem from different laboratories: compare values within a part only. Positions count from the first letter of the parent shown.

Study 1 — method: protein binding microarray; molecule type: double-stranded DNA, one strand shown; matrix: in vitro; tested at: not given; relative to: not given; reading: higher = stronger binding; quantity: E-score
Target: Histone acetyltransferase KAT6A, both winged helices, GST fusion (KAT6A, Homo sapiens, UniProt Q92794, residues 1-181)
Notes: 8-mer, flanks averaged, mean of 2 arrays, mostly near background
Target sequence (chain): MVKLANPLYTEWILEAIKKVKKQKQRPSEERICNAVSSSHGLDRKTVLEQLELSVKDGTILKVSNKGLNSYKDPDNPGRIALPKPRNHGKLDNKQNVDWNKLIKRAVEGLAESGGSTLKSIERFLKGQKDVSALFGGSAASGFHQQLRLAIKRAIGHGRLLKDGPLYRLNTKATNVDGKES
ACGCAATA: 0.199
AACTGCTA: -0.16
CAGTTCTA: -0.0256
GAACCCTC: -0.094
AGATATCC: -0.0641
AATTAAAA: -0.026
TATATACA: -0.102
AACACCAA: -0.284
CTGTGCTC: -0.0718
TAGATCCA: -0.171
CGCTCATC: 0.227
CATGGCCG: 0.135
TCCCAGCA: -0.14
GTGTCAAA: 0.0242
GAAGGAGC: -0.0225
ATGACCAC: 0.0438
AGGCCGTC: 0.198
AGCGGCCA: 0.178
ATAGTAAG: -0.146
ATGTAACA: 0.00788

Study 2 — method: competition protein-binding microarray; molecule type: double-stranded DNA, one strand shown; matrix: in vitro; tested at: 2 µM; with: Cbf1 competitor, 0.05 µM; reading: higher = stronger binding; quantity: fluorescence intensity; shared flanks, not repeated: … GTCTTGATTCGCTTGACGCTGCTG
Target: Phosphate system positive regulatory protein PHO4, full length, GST-tagged (PHO4, Saccharomyces cerevisiae, UniProt P07270, residues 1-312)
Notes: whole 60-bp probe, lowest competitor level
Target sequence (chain): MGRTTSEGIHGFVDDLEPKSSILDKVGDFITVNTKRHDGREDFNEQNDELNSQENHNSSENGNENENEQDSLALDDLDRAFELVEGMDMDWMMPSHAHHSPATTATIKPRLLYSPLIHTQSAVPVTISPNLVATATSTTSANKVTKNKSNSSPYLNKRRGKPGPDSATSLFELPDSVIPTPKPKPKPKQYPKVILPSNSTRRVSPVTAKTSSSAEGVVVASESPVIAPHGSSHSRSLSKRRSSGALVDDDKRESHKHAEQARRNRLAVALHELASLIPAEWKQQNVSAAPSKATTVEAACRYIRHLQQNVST
GTCTTGTCTCATTGTCCAGTGGGTGTCCCCACTTCA: 4400 a.u.
CGGTGGTATAGAAATGACGTGCCAGGCATAAGGTGA: 6430 a.u.
CTAACGAAGGTTTGTTTGGTGGGTGACAAGCCAAGT: 3310 a.u.
CATATTTATGACTGTCACATGATATTGAGGTTACTC: 8210 a.u.
CTTCTGTAAATTTGTGTTGTGGGTGGACGCGCCCCG: 4520 a.u.
AATTCTGGAATACTCCACGTGACTCGTATCCGAAAA: 12200 a.u.
TCGCCGAAACCTTGAAGCATGACAAGAATTTATAGT: 5860 a.u.
TGCGCAACAACTTGAGAGGTGGGTGTATGTCTAGAA: 4570 a.u.
AAATTACTAAGTTGACACGTGGGTGACGCCGTATGA: 19800 a.u.
CTTGTCAAAATCCGTCACGTGGTGAAGGGTCTGGTT: 16700 a.u.
TGCGCAACAACTTGAATGGTGGGTGTATGTCTAGAA: 4760 a.u.
TGTAGTTAAACAGTCCACGTGTATTTGACTGCAGTA: 17500 a.u.
TGAACGAAAGACCTGCGCATGACAACAAATTTACCG: 7030 a.u.
AAATTACTAAGTTGCTAAGTGGGTGACGCCGTATGA: 3750 a.u.
CATACCCAACCTTGTCACTCTACTTAAGATATTTGT: 4260 a.u.
CTGAACAATATGTACATCGTGTCGGTAGAGCTGGTA: 8940 a.u.

Study 3 — method: RNA Bind-n-Seq; molecule type: RNA; matrix: in vitro; tested at: 365 nM; relative to: no-protein control; reading: higher = stronger binding; quantity: RBNS enrichment (R)
Target: RNA binding protein fox-1 homolog 2, RRM domain, GST-SBP tag (RBFOX2, Homo sapiens, UniProt O43251-10, residues 100-194)
Notes: natural RNA segment, single round, ends assumed
Shared flanks, not repeated: GGGAGUUCUACAGUCCGACGAUC … UGGAAUUCUCGGGUGCCAA
Residues (chain): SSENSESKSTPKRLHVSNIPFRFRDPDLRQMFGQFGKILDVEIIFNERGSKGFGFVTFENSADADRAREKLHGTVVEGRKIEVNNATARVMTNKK
UUUCAUACGGUGAAUAUGCAUUUGGUCUGUACUGAUCAUGGAAUAAACACAUCUCUCUUUUUUUAAUCUGGCGUCUCCCUGACAUUUCUUUGUGAACCAACUGUUGCCUA: 0.456
CAGCAACGAGUACCUUCUCCCGCCUUGCCUCAGCGUAGAAGGGCUGCACUCUUGGCUGGUGUGAGUCAGCUACAGAGAAGGUAAUACGCCAUGUGGGAGGCCAAGGAGGC: 0.527
GCUGAAAUACUGAAUACUGAAAUACUAGAAACCAACAAAACUGGUUUCUAGAAUUCUCCAGGGAUUUGGGCUUGGGAAACUUGGUAAGAAUAGUUUUUAUUUUUGAACAU: 0.515
GGACUGAACAGCGGCGGCUGUCCCUGUGCAUCCUUUGAUUACUCUCAUGCUGCAUUUACUGUUUACAUUUGUUUUAUUGUACAUAGGUUUGUAAACAUUAUUGCCUGAGA: 0.389
CCAAGUGACCUUGUCCCCAGCUCCCUCCUCCCAGGCUGGUGUGAGUGUGCGUGCGUUUGUGCCGAGCUUCUAUUUCAUAUUGCAAAUAUAAAUAAAGGAAGGCAGUUUAC: 0.903
UUAUAGAGAAUUUGAUCUGCUCCGUGUGCGCUCUCUGCUAUUAGCCGGAGCUAUUUAUGGCAAACACAUGCUUUUGUAUCUUGUCAUAGUCAUCCACAGAUGGCAAAACU: 0.235
GCCCCCCAUCUUGCUUUCCCAGGGGCUGGCUUAUUGACAUUCCUCACAUGUUCUGAGUAUGGAACCUCAUCUGUGUUGCUUUUUCUUUCUCUGUGUCCUCACUGUGGGGC: 0.755
AAAUAUUUGAAAGCACUUAAGCACUCCUCCUUGUGGAAAGAAUAUACCACCAUUUCAUCUGGCUAGUUCACCAUCACAACUGCAUUACCAAAAGGGGAUUUUUGAAAACG: 0.748

Study 4 — target: CCND1, cyclin fold, Cln2 fusion (human); method: yeast growth competition, sequencing; matrix: yeast; notes: weak parent motif; relative to: not given; reading: higher = stronger binding; quantity: normalised enrichment score
Parent: PKMYT1 docking peptide (human); SFEPRNLLSLFED; partner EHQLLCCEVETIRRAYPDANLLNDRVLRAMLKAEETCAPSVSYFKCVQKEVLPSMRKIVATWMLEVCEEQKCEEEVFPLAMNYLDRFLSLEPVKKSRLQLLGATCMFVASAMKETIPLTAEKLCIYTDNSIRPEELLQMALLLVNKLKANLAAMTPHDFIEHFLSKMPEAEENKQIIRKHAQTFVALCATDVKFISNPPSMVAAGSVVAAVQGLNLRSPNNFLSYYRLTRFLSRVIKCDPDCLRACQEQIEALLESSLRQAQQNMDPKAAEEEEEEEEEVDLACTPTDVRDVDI
E3V: 0.829
L7A: 1.01
D13E: 0.487
S9W: 1.38
L8Y: 0.382
F11T: 1.07
E12K: 0.372
E3F: 0.0738
D13F: 1.66
F2T: 1.29
L8F: 0.65
F11R: 0.224
N6S: 1.52

Excerpt of the above (study 4):
E3F: 0.0738
D13F: 1.66
F2T: 1.29
L8F: 0.65
F11R: 0.224
